# Measurements gathered from unrelated publications.
# Every numbered part comes from another study and shows a few of its results, in no order.
# Sequence of UniProt Q9NQU5 (whole entry, looked up): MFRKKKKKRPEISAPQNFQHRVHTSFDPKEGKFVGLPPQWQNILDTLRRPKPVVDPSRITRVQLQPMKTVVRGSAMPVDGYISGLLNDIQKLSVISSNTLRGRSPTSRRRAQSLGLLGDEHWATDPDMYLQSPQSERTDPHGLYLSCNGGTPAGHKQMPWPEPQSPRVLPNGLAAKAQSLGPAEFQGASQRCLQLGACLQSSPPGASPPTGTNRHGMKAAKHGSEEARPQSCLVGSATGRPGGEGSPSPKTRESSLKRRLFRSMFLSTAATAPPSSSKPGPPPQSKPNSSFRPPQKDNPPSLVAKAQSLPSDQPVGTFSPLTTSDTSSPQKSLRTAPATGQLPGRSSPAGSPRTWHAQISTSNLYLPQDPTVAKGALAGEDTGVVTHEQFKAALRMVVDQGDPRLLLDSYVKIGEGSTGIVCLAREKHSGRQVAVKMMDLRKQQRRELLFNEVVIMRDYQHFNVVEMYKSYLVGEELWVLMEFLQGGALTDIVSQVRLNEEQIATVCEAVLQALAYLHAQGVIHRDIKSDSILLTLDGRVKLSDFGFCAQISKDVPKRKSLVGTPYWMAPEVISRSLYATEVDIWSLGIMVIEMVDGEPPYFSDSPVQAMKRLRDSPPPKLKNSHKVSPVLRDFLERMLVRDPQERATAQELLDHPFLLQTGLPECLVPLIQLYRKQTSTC
# Sequence of UniProt Q16512 (whole entry, looked up): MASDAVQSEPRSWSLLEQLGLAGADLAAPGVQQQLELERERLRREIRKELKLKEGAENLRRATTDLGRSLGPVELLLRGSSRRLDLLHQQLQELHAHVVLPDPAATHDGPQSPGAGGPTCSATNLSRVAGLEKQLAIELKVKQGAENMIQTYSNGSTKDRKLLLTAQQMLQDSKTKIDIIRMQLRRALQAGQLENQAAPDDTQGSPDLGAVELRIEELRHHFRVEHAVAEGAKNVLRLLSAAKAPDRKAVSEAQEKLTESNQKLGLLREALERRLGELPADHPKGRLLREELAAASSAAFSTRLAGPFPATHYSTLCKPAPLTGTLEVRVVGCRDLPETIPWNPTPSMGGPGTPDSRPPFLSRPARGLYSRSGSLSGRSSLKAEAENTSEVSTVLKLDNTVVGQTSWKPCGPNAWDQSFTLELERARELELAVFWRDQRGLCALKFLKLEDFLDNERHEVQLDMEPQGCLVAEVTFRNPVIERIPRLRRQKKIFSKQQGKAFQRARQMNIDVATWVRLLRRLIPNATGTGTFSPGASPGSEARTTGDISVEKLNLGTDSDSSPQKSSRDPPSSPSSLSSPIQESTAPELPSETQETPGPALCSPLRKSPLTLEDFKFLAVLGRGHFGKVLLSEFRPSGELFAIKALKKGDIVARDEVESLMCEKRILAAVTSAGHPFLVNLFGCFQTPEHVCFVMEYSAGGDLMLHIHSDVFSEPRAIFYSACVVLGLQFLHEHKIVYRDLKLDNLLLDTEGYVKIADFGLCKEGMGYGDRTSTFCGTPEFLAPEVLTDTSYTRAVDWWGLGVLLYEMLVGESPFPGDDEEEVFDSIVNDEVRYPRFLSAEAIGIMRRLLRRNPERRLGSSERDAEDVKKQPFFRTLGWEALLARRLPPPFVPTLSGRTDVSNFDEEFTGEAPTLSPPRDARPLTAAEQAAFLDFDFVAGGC
# Sequence of UniProt Q16620 (whole entry, looked up): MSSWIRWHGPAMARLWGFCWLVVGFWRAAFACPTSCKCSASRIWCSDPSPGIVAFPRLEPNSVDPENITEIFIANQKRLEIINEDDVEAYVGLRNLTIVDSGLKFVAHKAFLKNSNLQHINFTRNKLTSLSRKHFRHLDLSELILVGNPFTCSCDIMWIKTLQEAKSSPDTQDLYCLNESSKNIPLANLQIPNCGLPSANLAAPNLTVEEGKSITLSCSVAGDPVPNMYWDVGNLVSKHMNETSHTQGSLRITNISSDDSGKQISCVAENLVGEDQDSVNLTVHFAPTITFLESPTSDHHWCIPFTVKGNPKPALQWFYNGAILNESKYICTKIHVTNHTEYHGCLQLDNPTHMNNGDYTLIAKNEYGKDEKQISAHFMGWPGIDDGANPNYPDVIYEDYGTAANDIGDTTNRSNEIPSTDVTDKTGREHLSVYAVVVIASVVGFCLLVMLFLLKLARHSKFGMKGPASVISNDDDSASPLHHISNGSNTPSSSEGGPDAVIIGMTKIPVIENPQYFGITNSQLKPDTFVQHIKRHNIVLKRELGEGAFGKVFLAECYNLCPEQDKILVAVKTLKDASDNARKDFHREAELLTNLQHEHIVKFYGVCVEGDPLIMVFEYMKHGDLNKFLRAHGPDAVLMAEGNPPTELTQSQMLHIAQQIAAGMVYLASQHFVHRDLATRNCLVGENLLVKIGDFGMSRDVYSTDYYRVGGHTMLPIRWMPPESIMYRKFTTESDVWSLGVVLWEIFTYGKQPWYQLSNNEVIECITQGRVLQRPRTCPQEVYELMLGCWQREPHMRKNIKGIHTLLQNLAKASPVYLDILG

# Set 1
# Structure (SMILES): CNCc1ccccc1-c1csc([C@@H](C)Nc2nc(C)nc3cc(OC)c(OC)cc23)c1
# Observed: cell-free assay
# Method: competition with immobilised ligand
# Concentration: 1 µM
target,remaining binding [%]
"PRKCE (Homo sapiens, UniProt Q02156)",74
"MYLK4 (Homo sapiens, UniProt Q86YV6)",99
"eIF-2-alpha kinase GCN2, C-terminal kinase domain (EIF2AK4, Homo sapiens, UniProt Q9P2K8, S808G)",99
"NLK (Homo sapiens, UniProt Q9UBE8)",84
"FGFR4 (Homo sapiens, UniProt P22455)",100
"CAMK4 (Homo sapiens, UniProt Q16566)",88
"MYLK (Homo sapiens, UniProt Q15746)",84
"NTRK3 (Homo sapiens, UniProt Q16288)",88
"STK16 (Homo sapiens, UniProt O75716)",97
"KIT (Homo sapiens, UniProt P10721, D816H)",85
"CAMK1G (Homo sapiens, UniProt Q96NX5)",93
"PAK6 (Homo sapiens, UniProt Q9NQU5)",100
"NTRK2 (Homo sapiens, UniProt Q16620)",88
"PKN1 (Homo sapiens, UniProt Q16512)",100
"EGFR (Homo sapiens, UniProt P00533, del747-752/P753S)",61
"ROCK2 (Homo sapiens, UniProt O75116)",93
"CDK14 (Homo sapiens, UniProt O94921)",100
"EPHA7 (Homo sapiens, UniProt Q15375)",100

# Set 2
# Target: DNA polymerase theta, ATPase domain (POLQ, Homo sapiens, UniProt O75417)
# Sequence of UniProt O75417 (whole entry, unmodified, looked up): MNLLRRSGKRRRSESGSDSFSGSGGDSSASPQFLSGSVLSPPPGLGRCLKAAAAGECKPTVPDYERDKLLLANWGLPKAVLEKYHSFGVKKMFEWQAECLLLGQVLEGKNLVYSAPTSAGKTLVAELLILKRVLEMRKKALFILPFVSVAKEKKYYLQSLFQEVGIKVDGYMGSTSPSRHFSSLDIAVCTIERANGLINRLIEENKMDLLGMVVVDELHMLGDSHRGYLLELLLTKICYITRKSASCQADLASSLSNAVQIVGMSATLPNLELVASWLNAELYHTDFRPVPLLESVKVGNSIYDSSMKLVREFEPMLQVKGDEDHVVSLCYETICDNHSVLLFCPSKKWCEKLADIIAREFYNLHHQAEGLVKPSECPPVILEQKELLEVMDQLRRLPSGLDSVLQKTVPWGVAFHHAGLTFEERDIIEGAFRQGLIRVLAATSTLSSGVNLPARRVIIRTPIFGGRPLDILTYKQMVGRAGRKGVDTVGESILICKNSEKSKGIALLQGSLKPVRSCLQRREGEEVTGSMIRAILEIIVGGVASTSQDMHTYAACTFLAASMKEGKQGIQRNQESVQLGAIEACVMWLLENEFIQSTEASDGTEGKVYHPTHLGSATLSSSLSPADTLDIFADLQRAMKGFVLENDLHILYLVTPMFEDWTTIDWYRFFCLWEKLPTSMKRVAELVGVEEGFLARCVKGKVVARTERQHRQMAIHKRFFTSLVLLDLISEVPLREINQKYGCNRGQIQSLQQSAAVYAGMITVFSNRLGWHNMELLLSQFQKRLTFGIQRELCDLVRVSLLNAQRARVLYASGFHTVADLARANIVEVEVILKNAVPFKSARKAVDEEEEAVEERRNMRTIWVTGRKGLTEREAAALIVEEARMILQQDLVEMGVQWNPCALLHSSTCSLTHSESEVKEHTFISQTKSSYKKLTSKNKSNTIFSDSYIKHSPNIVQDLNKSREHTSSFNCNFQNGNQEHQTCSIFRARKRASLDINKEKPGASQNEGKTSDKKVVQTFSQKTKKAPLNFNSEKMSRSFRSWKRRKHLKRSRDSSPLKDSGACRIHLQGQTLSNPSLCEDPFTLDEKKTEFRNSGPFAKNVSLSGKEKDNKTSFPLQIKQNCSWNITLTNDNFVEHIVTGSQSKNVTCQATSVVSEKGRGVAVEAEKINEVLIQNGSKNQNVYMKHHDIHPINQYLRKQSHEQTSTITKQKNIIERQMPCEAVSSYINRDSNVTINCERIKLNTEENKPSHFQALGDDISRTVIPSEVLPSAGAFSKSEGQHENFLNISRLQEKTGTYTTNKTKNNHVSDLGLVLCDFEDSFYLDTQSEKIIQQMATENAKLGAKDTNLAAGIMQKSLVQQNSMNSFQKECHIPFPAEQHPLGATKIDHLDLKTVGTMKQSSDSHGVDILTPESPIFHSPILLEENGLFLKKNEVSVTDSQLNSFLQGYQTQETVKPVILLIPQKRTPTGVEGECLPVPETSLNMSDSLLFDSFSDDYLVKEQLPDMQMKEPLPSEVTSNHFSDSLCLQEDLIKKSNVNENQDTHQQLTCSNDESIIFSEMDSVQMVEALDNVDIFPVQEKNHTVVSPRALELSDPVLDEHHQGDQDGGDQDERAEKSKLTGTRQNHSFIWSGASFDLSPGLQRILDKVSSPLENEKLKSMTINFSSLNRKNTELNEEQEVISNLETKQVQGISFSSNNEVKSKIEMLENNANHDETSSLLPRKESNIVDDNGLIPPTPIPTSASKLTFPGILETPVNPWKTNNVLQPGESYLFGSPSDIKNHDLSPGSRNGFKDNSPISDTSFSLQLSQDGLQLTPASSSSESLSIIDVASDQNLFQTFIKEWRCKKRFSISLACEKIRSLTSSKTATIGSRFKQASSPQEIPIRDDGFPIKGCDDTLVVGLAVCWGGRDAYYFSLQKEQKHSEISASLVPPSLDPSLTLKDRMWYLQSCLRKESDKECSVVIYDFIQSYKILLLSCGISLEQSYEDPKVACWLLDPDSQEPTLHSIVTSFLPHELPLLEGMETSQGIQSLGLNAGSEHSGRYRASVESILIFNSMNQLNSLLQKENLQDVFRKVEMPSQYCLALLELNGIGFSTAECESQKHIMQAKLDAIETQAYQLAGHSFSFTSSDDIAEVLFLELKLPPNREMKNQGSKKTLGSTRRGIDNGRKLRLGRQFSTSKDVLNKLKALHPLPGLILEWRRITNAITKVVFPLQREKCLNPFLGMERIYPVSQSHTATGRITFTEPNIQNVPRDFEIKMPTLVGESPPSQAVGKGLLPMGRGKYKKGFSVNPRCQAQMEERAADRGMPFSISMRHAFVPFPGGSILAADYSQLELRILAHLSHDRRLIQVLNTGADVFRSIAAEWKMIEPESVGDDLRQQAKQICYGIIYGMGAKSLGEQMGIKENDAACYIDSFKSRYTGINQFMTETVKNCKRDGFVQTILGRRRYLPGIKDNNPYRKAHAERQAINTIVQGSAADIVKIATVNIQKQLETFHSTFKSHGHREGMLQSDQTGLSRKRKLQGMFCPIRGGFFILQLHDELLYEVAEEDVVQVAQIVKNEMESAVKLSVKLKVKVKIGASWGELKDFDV
# Observed: enzyme activity
# Action: inhibitor
# Concentration: 77 µM
# Relative to: untreated
Structure (SMILES),remaining activity [%]
COc1ccc(CCN(C)CCCC(C#N)(c2cc(OC)c(OC)c(OC)c2)C(C)C)cc1OC (centres unmarked),103
NS(=O)(=O)c1cc(C2(O)NC(=O)c3ccccc32)ccc1Cl (centres unmarked),96.2
CC(C)(C)c1nc(-c2cccc(NS(=O)(=O)c3c(F)cccc3F)c2F)c(-c2ccnc(N)n2)s1,97.2
COC(=O)C(C)(N)Cc1ccc(O)cc1 (racemic),101
CCCCC#Cc1nc(NC)c2ncn([C@@H]3O[C@H](CO)[C@@H](O)[C@H]3O)c2n1,96.6
Cc1n[nH]c(=O)[nH]c1=O,99.5

# Set 3
# Structure (SMILES): CN(C)S(=O)(=O)c1ccc2c(c1)/C(=C/c1cc3c([nH]1)CCCC3)C(=O)N2
# Observed: enzyme activity
# Action: inhibitor
# Concentration: 0.5 µM
# Relative to: control
target,remaining activity
"TYRO3 (Homo sapiens, UniProt Q06418)",57.2%
"TEC (Homo sapiens, UniProt P42680)",116%
"CAMK1 (Homo sapiens, UniProt Q14012)",107%
"CLK2 (Homo sapiens, UniProt P49760)",32.1%
"PRKCZ (Homo sapiens, UniProt Q05513)",98.9%
"PRKCQ (Homo sapiens, UniProt Q04759)",112%
"SGK2 (Homo sapiens, UniProt Q9HBY8)",101%
"SIK2 (Homo sapiens, UniProt Q9H0K1)",86.4%
"CAMKK1 (Homo sapiens, UniProt Q8N5S9)",65.4%
"PAK6 (Homo sapiens, UniProt Q9NQU5)",98.9%
"MAP3K20 (Homo sapiens, UniProt Q9NYL2)",99.4%
"PAK1 (Homo sapiens, UniProt Q13153)",96.1%

# Set 4
# Cell line: HaCaT
# Concentration: 100 µM
# Time: 60 h
Structure (SMILES),viability [%]
CC(=O)c1ccc(O)c(C(=O)O)c1,116
CCOC(=O)O[C@]1(C(=O)OCCl)CC[C@H]2[C@@H]3CCC4=CC(=O)C=C[C@]4(C)[C@H]3[C@@H](O)C[C@@]21C,89.4
CC(C)OC(=O)C(C(=O)OC(C)C)=C1SC=CS1,16.4
CCNC(=O)[C@@H]1CCCN1C(=O)[C@H](CCCNC(=N)N)NC(=O)[C@H](CC(C)C)NC(=O)[C@@H](C)NC(=O)[C@H](Cc1ccc(O)cc1)NC(=O)[C@H](CO)NC(=O)[C@H](Cc1c[nH]c2ccccc12)NC(=O)[C@H](Cc1c[nH]cn1)NC(=O)[C@@H]1CCC(=O)N1,143
Cc1nnc(NS(=O)(=O)c2ccc(N)cc2)s1,107
